Measured values collected from several papers.
A part holds a random share of what one study measured.
UniProt Q6PHR2, sequence (whole entry, looked up): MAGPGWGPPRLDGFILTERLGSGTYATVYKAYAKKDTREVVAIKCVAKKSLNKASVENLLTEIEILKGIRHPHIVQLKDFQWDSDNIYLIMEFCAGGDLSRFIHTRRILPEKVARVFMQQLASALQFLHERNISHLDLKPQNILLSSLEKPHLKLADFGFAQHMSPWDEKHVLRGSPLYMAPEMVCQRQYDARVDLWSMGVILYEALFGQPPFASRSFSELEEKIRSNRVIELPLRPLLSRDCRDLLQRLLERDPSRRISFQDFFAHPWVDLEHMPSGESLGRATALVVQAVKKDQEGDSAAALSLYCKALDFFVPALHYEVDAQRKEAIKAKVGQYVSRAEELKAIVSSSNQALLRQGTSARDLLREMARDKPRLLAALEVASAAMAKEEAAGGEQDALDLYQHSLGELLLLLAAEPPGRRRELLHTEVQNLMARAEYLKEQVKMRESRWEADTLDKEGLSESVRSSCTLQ
UniProt P49840, sequence (whole entry, looked up): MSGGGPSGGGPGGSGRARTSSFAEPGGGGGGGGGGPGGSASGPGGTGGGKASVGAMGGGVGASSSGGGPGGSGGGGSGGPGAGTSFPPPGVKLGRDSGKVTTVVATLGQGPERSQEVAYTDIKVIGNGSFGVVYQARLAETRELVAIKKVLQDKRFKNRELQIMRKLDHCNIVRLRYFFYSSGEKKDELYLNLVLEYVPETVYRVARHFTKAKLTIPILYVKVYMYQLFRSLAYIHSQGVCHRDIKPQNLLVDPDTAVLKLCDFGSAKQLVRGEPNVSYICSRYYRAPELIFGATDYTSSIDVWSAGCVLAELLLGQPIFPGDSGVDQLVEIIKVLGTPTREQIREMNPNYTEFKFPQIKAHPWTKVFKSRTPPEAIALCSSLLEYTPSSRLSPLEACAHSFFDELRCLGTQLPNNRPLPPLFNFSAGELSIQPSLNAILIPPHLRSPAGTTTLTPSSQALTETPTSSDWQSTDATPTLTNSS
UniProt P47898, sequence (whole entry, looked up): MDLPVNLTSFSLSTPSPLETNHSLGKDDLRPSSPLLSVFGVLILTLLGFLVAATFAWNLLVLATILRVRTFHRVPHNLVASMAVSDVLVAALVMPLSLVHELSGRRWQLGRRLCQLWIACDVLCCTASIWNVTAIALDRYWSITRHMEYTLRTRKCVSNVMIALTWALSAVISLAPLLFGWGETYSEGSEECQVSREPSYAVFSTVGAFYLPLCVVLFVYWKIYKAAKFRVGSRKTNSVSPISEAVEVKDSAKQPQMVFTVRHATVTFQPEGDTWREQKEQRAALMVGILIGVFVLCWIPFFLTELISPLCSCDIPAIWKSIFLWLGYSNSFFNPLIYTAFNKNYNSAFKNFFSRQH
UniProt P54764, sequence (whole entry, looked up): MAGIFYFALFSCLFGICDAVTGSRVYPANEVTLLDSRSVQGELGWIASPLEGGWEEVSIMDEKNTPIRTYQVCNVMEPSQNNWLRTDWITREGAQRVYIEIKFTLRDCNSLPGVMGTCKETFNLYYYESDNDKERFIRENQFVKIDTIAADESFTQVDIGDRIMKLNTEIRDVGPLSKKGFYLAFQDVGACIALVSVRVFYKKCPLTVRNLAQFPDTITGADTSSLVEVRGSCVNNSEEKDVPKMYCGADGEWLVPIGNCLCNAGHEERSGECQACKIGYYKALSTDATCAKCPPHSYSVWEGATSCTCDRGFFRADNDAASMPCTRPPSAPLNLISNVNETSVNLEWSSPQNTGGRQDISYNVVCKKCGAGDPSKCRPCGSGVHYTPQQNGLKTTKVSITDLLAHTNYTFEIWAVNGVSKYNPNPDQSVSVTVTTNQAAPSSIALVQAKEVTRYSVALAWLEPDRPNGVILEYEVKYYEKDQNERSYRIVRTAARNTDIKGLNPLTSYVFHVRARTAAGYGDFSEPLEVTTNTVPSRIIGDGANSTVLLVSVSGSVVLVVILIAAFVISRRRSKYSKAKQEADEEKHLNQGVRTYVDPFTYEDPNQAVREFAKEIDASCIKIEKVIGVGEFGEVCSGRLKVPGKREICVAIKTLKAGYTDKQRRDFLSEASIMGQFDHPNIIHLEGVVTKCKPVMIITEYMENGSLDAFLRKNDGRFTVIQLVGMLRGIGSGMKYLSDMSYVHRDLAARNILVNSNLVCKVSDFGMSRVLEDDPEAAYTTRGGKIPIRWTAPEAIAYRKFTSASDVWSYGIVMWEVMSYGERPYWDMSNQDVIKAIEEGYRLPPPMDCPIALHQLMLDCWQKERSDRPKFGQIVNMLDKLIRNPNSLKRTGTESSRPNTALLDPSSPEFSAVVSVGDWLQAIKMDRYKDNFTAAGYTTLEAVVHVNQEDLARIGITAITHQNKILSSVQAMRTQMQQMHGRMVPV

Series 1 — observed: enzyme activity; action: inhibitor; tested at: 0.5 µM; baseline: control
Target: Tyrosine-protein kinase ITK/TSK (ITK, Homo sapiens, UniProt Q08881)
UniProt Q08881, sequence (whole entry, looked up): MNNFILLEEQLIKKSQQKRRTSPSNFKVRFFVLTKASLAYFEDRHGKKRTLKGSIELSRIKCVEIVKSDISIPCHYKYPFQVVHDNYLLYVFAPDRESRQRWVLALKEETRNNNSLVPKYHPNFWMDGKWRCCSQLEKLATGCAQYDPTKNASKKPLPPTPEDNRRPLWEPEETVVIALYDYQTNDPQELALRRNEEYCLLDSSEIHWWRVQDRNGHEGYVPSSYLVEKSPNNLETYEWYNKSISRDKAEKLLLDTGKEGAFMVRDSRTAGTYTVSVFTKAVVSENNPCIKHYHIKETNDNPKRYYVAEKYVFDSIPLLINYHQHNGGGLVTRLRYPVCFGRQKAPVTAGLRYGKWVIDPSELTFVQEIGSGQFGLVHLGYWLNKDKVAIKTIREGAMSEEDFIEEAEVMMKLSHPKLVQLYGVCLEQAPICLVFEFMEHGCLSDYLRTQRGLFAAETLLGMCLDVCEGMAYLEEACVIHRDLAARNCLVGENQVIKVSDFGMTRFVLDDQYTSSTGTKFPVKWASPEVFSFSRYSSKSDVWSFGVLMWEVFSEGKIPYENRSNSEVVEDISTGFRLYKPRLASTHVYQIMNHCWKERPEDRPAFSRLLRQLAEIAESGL
Structure (SMILES)	remaining activity [%]
c1cc(-c2cnn3cc(-c4ccc(OCCN5CCCCC5)cc4)cnc23)ccn1	39.9
O=C1c2ccccc2-c2nc3nnnn3nc21	71.5
CCN(CC)CCCCN1c2ccccc2Oc2ccc(Cl)cc21	101
O=C1NC(=O)/C(=C/c2ccc3c(c2)OC(F)(F)O3)S1	92.9
CCCCc1c(-c2ccc(O)cc2)[nH]c2nccnc12	104
CC(C)N(CCC(=O)c1ccc2ccccc2c1)Cc1ccccc1	89.9
NC(=O)c1ccc(-c2nc(-c3ccc4c(c3)OCCO4)c(-c3ccccn3)[nH]2)cc1	104
N#C/C(=C(/N)SC1C=CC=CC1)c1cccc(C(O)c2ccncc2)c1 (stereo not shown)	92.3
CC(C)(C)c1nc2c3cc[nH]c(=O)c3c3cc(F)ccc3c2[nH]1	86
Nc1nc(Nc2ccc(S(N)(=O)=O)cc2)nn1C(=S)Nc1c(F)cccc1F	61
Clc1ccc(Nc2nnc(Cc3ccncc3)c3ccccc23)cc1	103
O=C(c1ccccc1)c1ccc(N2CCOCC2)cc1O	99.5
O=c1c(-c2ccc(F)cc2)c(-c2ccncc2)[nH]n1-c1ccc(Cl)cc1	79.7
NC(=O)c1cccc(-c2cc(Nc3ccc(OC(F)(F)F)cc3)ncn2)c1	95.3
FC(F)(F)c1ccc(/C=C/c2nc(COc3ccc(CCCCn4ccnn4)cc3)co2)cc1	102
C[C@@H](N)[C@H]1CC[C@H](C(=O)Nc2ccncc2)CC1	95.8
CNc1cc2c(Nc3cccc(Br)c3)ncnc2cn1	92.5
O=C(O)/C=C/c1cc(Br)c(Br)c(Br)c1Br	100
CC(C)n1cnc2c(Nc3cccc(Cl)c3)nc(NCCO)nc21	96

Series 2 — cell line: mouse MPNST tumor cells; method: high-content immunofluorescence imaging; measured: nuclear SOX9; tested at: 10 µM; time: 12 h; notes: mean of 2 replicates; baseline: DMSO control; reading: higher = more nuclear SOX9
SMILES	nuclear SOX9 intensity
N#CC(c1ccc(Cl)cc1)c1c(Cl)cc(-n2ncc(=O)[nH]c2=O)cc1Cl (stereo not shown)	81.1 % of DMSO
O=C(c1cc(C2CC2)on1)N(C1CCCCC1)C1CCCCC1	107 % of DMSO
CCCn1c(=O)c2[nH]c(-c3ccc(OCC(=O)NCCN)cc3)nc2n(CCC)c1=O	104 % of DMSO
NNCCc1ccccc1	104 % of DMSO
CN(c1nccc(=O)[nH]1)C1CCN(c2nc3ccccc3n2Cc2ccc(F)cc2)CC1	108 % of DMSO

Series 3 — cell line: HaCaT; tested at: 100 µM; time: 60 h
SMILES	viability [%]
CCOC(=O)[C@H](CCc1ccccc1)N[C@@H](C)C(=O)N1CCC[C@H]1C(=O)O	152
O=[N+]([O-])c1cncn1CCN1CCOCC1	134
CC(C)NCC(O)COc1cccc2[nH]ccc12 (stereo not shown)	134
CC1(C)O[C@@H]2C[C@H]3[C@@H]4CCC5=CC(=O)C=C[C@]5(C)[C@@]4(F)[C@@H](O)C[C@]3(C)[C@]2(C(=O)CO)O1	142
Nc1c(CC(=O)O)cccc1C(=O)c1ccccc1	143

Series 4
SMILES: CC(C)n1cnc(-c2ccc(F)cc2)c1-c1ncc(C(=O)Nc2ccc(N3CCN(C)CC3)cc2)[nH]1
method	species	dose	notes	patients with pulmonary embolism
phase 2a trial	idiopathic pulmonary fibrosis patients	30 mg once daily	grade 3 emergent event	0%
phase 2a trial	idiopathic pulmonary fibrosis patients	30 mg once daily	grade 1 emergent event	0%
phase 2a trial	idiopathic pulmonary fibrosis patients	all arms	grade 4 emergent event	0%
phase 2a trial	idiopathic pulmonary fibrosis patients	60 mg once daily	grade 5 emergent event	0%
–	human, idiopathic pulmonary fibrosis	60 mg once daily	trial, treatment-emergent	0%
phase 2a trial	idiopathic pulmonary fibrosis patients	60 mg once daily	grade 1 emergent event	0%
phase 2a trial	idiopathic pulmonary fibrosis patients	30 mg once daily	grade 2 emergent event	0%

Series 5 — SMILES: NCc1ccc(Nc2ncc(F)c(Nc3ccccc3)n2)cc1
target	observed	method	matrix	IC50 [µM]
EPHA4 (Homo sapiens, UniProt P54764)	–	–	–	> 10
SRC (Homo sapiens, UniProt P12931)	–	–	–	> 10
ULK3 (Homo sapiens, UniProt Q6PHR2)	–	–	–	> 10
GSK3A (Homo sapiens, UniProt P49840)	–	kinobead competition	MRC5 cell lysate	> 10
Trypanosoma brucei CAMKK Tb427tmp.02.4860	binding	kinobead competition	Trypanosoma brucei lysate	> 10

Further values, each from its own experiment
SMILES	target or system	observed	tested at	baseline	measurement	result
CN(C)C(=O)/C(C#N)=C/c1ccc(-c2nc3cnc4c(ccn4C)c3n2C2CCCCC2)o1	sample J colorectal tumour organoid	–	0.1 µM	DMSO	viability	111%
CC[C@H](CC(=O)O)n1c(=O)c2ncccc2n(Cc2cn(C)c3cc(C)cc(C)c23)c1=O	HTR5A (Homo sapiens, UniProt P47898)	ligand displacement	10 µM	–	inhibition	5.71%

For quick reference, copied from above (series 5):
target	observed	method	matrix	IC50 [µM]
ULK3 (Homo sapiens, UniProt Q6PHR2)	–	–	–	> 10
Trypanosoma brucei CAMKK Tb427tmp.02.4860	binding	kinobead competition	Trypanosoma brucei lysate	> 10
SRC (Homo sapiens, UniProt P12931)	–	–	–	> 10
